# Published values pooled from the literature.
# Numbers after ± are the reported error.
Compound,species,matrix,route,dose,time,setting,Tmax [h]
CCN1CCN(c2ccc(Nc3cc(N(C)C(=O)Nc4c(Cl)c(OC)cc(OC)c4Cl)ncn3)cc2)CC1,"Crl:WI(Han) rat, juvenile male",plasma,oral gavage,0.3 mg/kg/day,,postnatal day 17,3
Cc1nc2cccc(OCC(C)(C)C(=O)NC(C)C)c2c(N)c1C(=O)O,male Sprague-Dawley rat,plasma,dietary,60 mg/kg/day,day 90,,6
Nc1ncc(-c2cnn(CCO)c2)c2scc(-c3ccc(NC(=O)Nc4cccc(F)c4)cc3)c12,human,plasma,oral,540 mg,,patients,3.3
CCn1c2ccccc2c2cc(-n3nncc3-c3ccccc3)ccc21,female BALB/c mouse,spleen,intraperitoneal,10 mg/kg,,single dose,0.5
CCCOc1ccc([C@H]2CNC(=O)N2c2ccc3[nH]cnc3c2)cc1,human,plasma,oral,50 mg,,"single dose, fasted",0.5
C[C@@H]1CCC[C@H](n2cnc(-c3cc(Cl)ccc3-n3cc(Cl)nn3)cc2=O)c2cc(ccn2)-c2c(cnn2C(F)F)NC1=O,human,plasma,oral,500 mg,,"single dose, fed, healthy volunteers",4
CC(C)=CCC[C@](C)(O[C@@H]1O[C@H](CO[C@@H]2O[C@H](CO)[C@@H](O)[C@H](O)[C@H]2O)[C@@H](O)[C@H](O)[C@H]1O)[C@H]1CC[C@]2(C)[C@@H]1[C@H](O)C[C@@H]1[C@@]3(C)CC[C@H](O[C@@H]4O[C@H](CO)[C@@H](O)[C@H](O)[C@H]4O[C@@H]4O[C@H](CO)[C@@H](O)[C@H](O)[C@H]4O)C(C)(C)[C@@H]3CC[C@]12C,"Sprague Dawley rat, male",plasma,oral,86 mg/kg,,red ginseng extract,24 ± 4.1
CS(=O)(=O)c1ccc(-c2cnc(N)c(-c3ccc(C(F)(F)F)nc3)c2)cc1,pregnant female Sprague-Dawley rat,plasma,oral,3 mg/kg/day,gestation day 6,,4
C#C[C@]1(CO)O[C@@H](n2cnc3c(N)nc(F)nc32)C[C@@H]1O,human,plasma,oral,200 mg,,"single dose, fasted",0.5
COc1cccc(-c2n[nH]c(SCc3ccccn3)n2)c1OC,"Sprague-Dawley rat, both sexes",plasma,"oral, diet",30 mg/kg/day,day 7,,6
CC(=O)N[C@H]1CC[C@H](NC(=O)CN2CCN(c3nncc(-c4ccc(C)cc4)n3)CC2)CC1,human,plasma,oral,200 mg,,"single dose, fasted, healthy volunteers",1.3
CCCC[C@H](NC(C)=O)C(=O)N[C@H]1CCC(=O)NC[C@@H](C(=O)N[C@@H](Cc2c[nH]c3ccccc23)C(N)=O)NC(=O)[C@H](CCCNC(=N)N)NC(=O)[C@@H](Cc2ccccc2)NC(=O)[C@H](Cc2c[nH]cn2)NC1=O,"beagle dog, male",plasma,subcutaneous,1.5 mg/kg daily,day 1,,1.1
CNC(=O)c1ccccc1Nc1cc(Nc2ccc(N3CCOCC3)cc2OC)ncc1C(F)(F)F,BALB/c mouse,plasma,intraperitoneal,100 mg/kg,,single dose,≤ 0.5
CNc1nc(Nc2ccc(-n3cnc(C)n3)c(OC)c2)nc2c1CC[C@H]2c1ccc(F)cc1,human,plasma,oral,900 mg,,"single dose, healthy volunteers",4

# For quick reference, copied from above:
Compound,species,matrix,route,dose,time,setting,Tmax [h]
CCCOc1ccc([C@H]2CNC(=O)N2c2ccc3[nH]cnc3c2)cc1,human,plasma,oral,50 mg,,"single dose, fasted",0.5
